Measurements collected from several papers.
Numbered parts are unrelated; each lists some results of a single study. Positions count from the first letter of the parent shown.

Study 1 — method: DHFR PCA, deep sequencing; matrix: yeast; with: (+)-ABA 4.8 µM; baseline: wild-type fitted maximum; reading: higher = stronger binding
Target: ABI1, truncated, D143A, DHFR fusion (Arabidopsis thaliana)
Setting: methotrexate growth selection, single substitutions
Starting sequence: PYL1, truncated, DHFR fusion (Arabidopsis thaliana); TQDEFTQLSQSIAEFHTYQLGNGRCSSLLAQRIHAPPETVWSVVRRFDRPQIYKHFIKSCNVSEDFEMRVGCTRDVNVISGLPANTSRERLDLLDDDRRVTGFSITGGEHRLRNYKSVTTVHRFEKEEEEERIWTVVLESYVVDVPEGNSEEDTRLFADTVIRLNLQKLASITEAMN
Substitution	relative binding score
D65P	81.4%
I12Y	12%
S87H	21.8%
F56M	41.4%

Study 2 — method: universal PBM; form: double-stranded DNA, one strand shown; matrix: in vitro; tested at: 600 nM; reading: higher = stronger binding
Target: Sal-like protein 4, full length isoform A (SALL4, Homo sapiens, UniProt Q9UJQ4, residues 1-1053)
Chain of UniProt Q9UJQ4 (whole entry, looked up): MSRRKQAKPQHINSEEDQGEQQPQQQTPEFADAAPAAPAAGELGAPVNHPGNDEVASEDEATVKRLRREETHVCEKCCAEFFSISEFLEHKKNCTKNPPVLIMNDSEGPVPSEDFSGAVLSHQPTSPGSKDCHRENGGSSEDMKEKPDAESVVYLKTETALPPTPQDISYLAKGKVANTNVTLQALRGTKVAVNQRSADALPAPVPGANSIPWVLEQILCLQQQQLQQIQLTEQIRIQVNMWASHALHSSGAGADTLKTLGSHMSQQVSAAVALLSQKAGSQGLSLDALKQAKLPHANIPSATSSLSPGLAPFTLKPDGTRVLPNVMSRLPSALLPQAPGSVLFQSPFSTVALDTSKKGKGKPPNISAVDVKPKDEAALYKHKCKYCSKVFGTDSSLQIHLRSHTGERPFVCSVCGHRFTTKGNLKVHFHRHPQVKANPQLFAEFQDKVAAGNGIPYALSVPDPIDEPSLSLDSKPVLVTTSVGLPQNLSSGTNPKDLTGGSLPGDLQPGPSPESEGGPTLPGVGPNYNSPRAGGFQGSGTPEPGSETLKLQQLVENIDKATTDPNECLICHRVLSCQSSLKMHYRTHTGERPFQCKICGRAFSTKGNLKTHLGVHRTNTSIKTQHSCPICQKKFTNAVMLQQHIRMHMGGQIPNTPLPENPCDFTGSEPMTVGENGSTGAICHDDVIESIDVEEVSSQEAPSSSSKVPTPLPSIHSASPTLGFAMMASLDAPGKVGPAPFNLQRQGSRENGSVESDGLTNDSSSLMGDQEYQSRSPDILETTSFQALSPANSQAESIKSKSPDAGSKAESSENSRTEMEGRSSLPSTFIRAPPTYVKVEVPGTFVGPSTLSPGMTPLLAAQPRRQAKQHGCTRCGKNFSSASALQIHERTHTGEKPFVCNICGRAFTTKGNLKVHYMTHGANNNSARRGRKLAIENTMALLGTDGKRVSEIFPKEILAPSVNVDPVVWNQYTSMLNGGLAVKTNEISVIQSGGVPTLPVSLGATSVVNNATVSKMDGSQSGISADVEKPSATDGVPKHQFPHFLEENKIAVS
Setting: 8-mer, flanks averaged, mean of replicates
Strand	E-score
CCTGTAGC	-0.11
GAATACAC	0.197
CCCAAATC	-0.0101
AGTTCAAG	0.197
CAACTGAG	0.0717
ATCTGAGA	0.0239
CAACACGC	-0.125

Study 3 — target: CCND1, cyclin fold, Cln2 fusion (human); method: yeast growth competition, sequencing; matrix: yeast; setting: weak parent motif; baseline: not given; reading: higher = stronger binding
Starting sequence: SLBP docking peptide (human); ARYKRKLLINDFG; partner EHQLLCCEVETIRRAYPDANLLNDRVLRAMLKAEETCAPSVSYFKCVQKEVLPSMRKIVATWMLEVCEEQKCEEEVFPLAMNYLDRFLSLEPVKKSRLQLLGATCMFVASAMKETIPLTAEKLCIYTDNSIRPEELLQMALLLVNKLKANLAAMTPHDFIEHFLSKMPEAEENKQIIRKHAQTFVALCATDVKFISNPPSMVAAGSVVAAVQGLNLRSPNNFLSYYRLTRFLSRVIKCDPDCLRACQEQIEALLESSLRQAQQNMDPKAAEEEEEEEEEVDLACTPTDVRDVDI
Substitution	normalised enrichment score
AWYKRKLLINDFG [R2W]	0.678
ARYKKKLFINDFG [R5K L8F]	0.0926
ARYKPKLLINDFG [R5P]	0.362
ARYKRLLLINDFG [K6L]	0.433
ARYKRKLLINRFG [D11R]	0.168
ARYKRVLLINDFG [K6V]	0.416
SRYKRKLLINDFG [A1S]	0.312

Further values, each from its own experiment
Substance	target	test	system	conditions	how to read	quantity	value
PhoQ, residues 284 288 289 292 302 303 WVSSAF	PhoP, residues 12 14 15 18 19 AWHSL (Escherichia coli, UniProt P23836)	Sort-seq, refers to: YFP reporter	E. coli	PhoQ-PhoP variant library, with: 10 µM Mg2+	baseline: high Mg2+ state, higher = stronger signaling	fold induction	3.59
